Measured values of several laboratories.
Each line is one published result; not all experiments were run side by side.
Organism: Streptococcus pneumoniae

Compound | observed | method | strain | notes | MIC
O=C(O)CN1C(=O)/C(=C/c2ccc(-c3ccc(N(c4ccccc4)c4ccccc4)cc3)cc2)NC1=S | – | broth microdilution | ATCC 49619 | – | 62.5 µg/mL
COC1CCN(Cc2cc(N(C)C)c3c(c2O)C(=O)C2=C(O)[C@]4(O)C(=O)C(C(N)=O)=C(O)[C@@H](N(C)C)[C@@H]4C[C@@H]2C3)CC1 | microbial growth | broth dilution | – | – | < 0.06 µg/mL
CC(C=CC(O)=C1C(=O)CNC1=O)=CC(C)C1OC2(C)OC(C(=O)C(O)C2(C)O)C1C (stereo not shown) | – | – | ATCC 49619 | – | > 100 µM
CC(C)CNCc1cc(N(C)C)c2c(c1O)C(=O)C1=C(O)[C@]3(O)C(=O)C(C(N)=O)=C(O)[C@@H](N(C)C)[C@@H]3C[C@@H]1C2 | microbial growth | broth dilution | – | – | 0.25 µg/mL
CC(C=CC(O)=C1C(=O)CNC1=O)=CC(C)C1OC2(C)OC(C1C)C(O)C1OC12C (stereo not shown) | – | – | ATCC 49619 | – | > 100 µM
Oc1c(Br)cc(Br)c2nc3cc(SC(F)(F)F)ccc3nc12 | microbial growth | broth dilution | 6303 | – | 0.08 µM
CN(C)c1cc(CNCc2ccc(O)cc2)c(O)c2c1C[C@H]1C[C@H]3[C@H](N(C)C)C(O)=C(C(N)=O)C(=O)[C@@]3(O)C(O)=C1C2=O | microbial growth | broth dilution | – | – | 1 µg/mL
Oc1c(Br)cc(Br)c2nc3cc(C(F)(F)F)ccc3nc12 | microbial growth | broth dilution | 6303 | – | 0.08 µM
c1ccc(CN2CCOCCOCCN(CCCCCCCCCCCCCCN3CCOCCOCCN(CCCCCCCCCCCCCCN4CCOCCOCCN(Cc5ccccc5)CCOCCOCC4)CCOCCOCC3)CCOCCOCC2)cc1 | microbial growth | – | – | – | 6 µM
Oc1c(Br)cc(Br)c2nc3cc(Cl)ccc3nc12 | microbial growth | broth dilution | 6303 | – | 0.2 µM
CN(C)c1cc(CN2CCc3ccccc3C2)c(O)c2c1C[C@H]1C[C@H]3[C@H](N(C)C)C(O)=C(C(N)=O)C(=O)[C@@]3(O)C(O)=C1C2=O | – | – | 157E | 50% mouse serum | 4 µg/mL
Oc1c(Br)cc(Br)c2nc3cc(Br)ccc3nc12 | microbial growth | broth dilution | 6303 | – | 0.39 µM
c1ccc(CN2CCOCCOCCN(CCCCCCCCCCN3CCOCCOCCN(CCCCCCCCCCN4CCOCCOCCN(Cc5ccccc5)CCOCCOCC4)CCOCCOCC3)CCOCCOCC2)cc1 | – | – | R:Pen | – | 6 µM

For quick reference, copied from above:
Compound | observed | method | strain | notes | MIC
COC1CCN(Cc2cc(N(C)C)c3c(c2O)C(=O)C2=C(O)[C@]4(O)C(=O)C(C(N)=O)=C(O)[C@@H](N(C)C)[C@@H]4C[C@@H]2C3)CC1 | microbial growth | broth dilution | – | – | < 0.06 µg/mL
CC(C=CC(O)=C1C(=O)CNC1=O)=CC(C)C1OC2(C)OC(C(=O)C(O)C2(C)O)C1C (stereo not shown) | – | – | ATCC 49619 | – | > 100 µM
